Published values pooled from the literature.
Compare with care: the assays were run in different laboratories. ± marks the error that the study gave.
GPR17 long isoform: Uracil nucleotide/cysteinyl leukotriene receptor, long isoform (GPR17, Homo sapiens, UniProt Q13304)
GLP1R: Glucagon-like peptide 1 receptor (GLP1R, Homo sapiens, UniProt P43220)
AHR: Aryl hydrocarbon receptor (AHR, Homo sapiens, UniProt P35869)
KCNT1: Potassium channel subfamily T member 1 (KCNT1, Homo sapiens, UniProt Q5JUK3)

Sequences of proteins named here, by UniProt entry; tags and fusion partners are left off. Residues count along the entry.
UniProt Q13304, whole entry: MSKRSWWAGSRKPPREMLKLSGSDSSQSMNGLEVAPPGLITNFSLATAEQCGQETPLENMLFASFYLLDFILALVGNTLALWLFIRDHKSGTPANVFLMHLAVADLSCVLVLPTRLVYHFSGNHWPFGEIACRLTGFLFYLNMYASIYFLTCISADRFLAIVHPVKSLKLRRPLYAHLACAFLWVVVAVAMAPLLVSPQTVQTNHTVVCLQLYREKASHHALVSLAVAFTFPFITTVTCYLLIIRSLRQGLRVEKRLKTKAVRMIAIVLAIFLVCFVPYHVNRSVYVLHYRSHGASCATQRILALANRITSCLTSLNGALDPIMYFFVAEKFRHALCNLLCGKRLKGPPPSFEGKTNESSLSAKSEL
UniProt P43220, whole entry, looked up: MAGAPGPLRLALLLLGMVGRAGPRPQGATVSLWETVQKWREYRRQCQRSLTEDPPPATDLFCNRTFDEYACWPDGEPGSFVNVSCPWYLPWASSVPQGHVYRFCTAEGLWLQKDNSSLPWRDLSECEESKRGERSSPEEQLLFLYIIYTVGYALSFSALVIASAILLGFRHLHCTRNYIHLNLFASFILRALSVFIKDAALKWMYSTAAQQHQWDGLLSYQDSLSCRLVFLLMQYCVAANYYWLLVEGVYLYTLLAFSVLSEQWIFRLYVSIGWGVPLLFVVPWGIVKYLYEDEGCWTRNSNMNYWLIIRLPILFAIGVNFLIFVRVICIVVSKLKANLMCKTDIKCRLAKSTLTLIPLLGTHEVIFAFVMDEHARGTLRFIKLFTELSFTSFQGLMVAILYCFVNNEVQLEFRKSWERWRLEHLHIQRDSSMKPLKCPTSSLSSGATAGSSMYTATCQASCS
UniProt P43220, 24-463 limits assumed: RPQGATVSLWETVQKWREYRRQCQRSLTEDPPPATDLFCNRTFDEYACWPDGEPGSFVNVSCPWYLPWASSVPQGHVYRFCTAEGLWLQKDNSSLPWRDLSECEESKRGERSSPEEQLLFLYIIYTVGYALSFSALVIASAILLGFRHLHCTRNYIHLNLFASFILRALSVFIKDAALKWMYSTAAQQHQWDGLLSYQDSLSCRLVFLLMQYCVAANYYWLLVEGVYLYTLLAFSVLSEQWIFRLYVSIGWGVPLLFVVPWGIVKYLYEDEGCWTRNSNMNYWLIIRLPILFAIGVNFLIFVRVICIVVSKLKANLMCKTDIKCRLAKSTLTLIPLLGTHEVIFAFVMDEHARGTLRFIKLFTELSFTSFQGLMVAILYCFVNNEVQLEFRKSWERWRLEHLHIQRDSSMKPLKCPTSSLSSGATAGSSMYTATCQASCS
UniProt P35869, whole entry, looked up: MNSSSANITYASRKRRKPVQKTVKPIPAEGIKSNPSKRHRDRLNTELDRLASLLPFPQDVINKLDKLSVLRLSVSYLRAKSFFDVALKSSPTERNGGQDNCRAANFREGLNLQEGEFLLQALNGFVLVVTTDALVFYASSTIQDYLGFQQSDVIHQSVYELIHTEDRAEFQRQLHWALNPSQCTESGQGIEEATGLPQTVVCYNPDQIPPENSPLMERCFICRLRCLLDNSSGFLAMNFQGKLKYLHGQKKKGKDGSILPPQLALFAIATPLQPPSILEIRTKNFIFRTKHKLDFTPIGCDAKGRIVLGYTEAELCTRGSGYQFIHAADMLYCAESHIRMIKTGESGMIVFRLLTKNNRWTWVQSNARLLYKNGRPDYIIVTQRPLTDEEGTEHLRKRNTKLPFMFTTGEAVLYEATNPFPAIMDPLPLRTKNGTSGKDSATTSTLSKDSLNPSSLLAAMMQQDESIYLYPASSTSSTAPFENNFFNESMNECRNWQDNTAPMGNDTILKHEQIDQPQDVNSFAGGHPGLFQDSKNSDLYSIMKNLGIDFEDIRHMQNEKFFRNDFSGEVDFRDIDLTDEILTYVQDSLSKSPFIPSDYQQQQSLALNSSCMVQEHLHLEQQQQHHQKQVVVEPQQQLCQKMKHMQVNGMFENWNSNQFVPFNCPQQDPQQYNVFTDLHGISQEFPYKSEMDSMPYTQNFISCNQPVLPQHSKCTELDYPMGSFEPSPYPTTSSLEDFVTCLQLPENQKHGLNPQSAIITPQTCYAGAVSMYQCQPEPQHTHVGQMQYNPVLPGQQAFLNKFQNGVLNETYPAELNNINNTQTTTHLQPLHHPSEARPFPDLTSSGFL
UniProt Q5JUK3, whole entry: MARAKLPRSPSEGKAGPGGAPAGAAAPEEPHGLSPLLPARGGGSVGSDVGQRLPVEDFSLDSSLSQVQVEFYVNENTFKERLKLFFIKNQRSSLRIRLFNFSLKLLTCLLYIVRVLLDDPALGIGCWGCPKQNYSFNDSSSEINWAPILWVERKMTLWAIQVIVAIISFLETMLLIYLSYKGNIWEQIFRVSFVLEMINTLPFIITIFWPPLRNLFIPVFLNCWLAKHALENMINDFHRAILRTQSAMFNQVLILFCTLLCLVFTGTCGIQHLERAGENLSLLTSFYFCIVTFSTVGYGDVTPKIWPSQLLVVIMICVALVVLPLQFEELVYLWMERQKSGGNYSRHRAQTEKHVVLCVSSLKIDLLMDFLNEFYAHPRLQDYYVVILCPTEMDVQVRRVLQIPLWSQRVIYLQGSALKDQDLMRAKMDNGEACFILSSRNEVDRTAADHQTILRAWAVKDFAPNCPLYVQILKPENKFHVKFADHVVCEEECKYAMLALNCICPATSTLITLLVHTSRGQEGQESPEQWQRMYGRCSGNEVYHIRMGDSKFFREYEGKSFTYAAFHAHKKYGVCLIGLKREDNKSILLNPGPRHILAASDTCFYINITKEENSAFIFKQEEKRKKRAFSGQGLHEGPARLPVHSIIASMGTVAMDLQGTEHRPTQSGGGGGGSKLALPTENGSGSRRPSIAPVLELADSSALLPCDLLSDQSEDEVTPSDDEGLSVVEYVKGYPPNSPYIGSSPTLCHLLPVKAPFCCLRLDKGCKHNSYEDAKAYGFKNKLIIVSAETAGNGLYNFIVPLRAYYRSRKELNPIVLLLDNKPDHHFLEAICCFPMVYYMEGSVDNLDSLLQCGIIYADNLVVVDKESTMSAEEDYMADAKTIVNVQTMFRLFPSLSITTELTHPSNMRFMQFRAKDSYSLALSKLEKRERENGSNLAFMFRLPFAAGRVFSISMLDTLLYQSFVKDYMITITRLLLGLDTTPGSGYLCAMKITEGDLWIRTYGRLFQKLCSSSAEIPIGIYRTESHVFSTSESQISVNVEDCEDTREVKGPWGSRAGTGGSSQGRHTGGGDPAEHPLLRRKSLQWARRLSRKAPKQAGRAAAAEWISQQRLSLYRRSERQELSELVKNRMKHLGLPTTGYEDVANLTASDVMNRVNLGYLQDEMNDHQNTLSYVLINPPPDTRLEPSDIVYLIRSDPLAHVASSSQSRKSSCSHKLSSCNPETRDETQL
UniProt P30518, whole entry: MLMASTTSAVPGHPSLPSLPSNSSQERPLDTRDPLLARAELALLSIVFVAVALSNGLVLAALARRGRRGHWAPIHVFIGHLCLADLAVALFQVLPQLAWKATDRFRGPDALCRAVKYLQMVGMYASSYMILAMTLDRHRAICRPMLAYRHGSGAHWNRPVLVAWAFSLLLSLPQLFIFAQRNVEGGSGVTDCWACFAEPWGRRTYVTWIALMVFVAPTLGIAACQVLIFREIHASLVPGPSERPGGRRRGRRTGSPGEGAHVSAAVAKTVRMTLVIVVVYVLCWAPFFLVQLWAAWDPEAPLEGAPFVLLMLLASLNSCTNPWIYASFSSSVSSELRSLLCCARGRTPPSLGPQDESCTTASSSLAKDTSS
UniProt P47872, 23-440 limits assumed: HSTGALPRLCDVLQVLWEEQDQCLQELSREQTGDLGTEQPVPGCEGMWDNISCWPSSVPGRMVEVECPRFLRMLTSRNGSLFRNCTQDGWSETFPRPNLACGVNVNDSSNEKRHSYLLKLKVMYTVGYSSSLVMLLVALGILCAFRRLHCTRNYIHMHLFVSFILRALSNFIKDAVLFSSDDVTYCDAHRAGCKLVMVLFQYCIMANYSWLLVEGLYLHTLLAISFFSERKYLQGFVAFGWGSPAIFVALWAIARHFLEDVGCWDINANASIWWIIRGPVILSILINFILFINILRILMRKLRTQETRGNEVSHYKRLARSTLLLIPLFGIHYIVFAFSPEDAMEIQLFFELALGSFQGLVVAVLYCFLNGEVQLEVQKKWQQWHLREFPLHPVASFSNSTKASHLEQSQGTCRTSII

| Structure (SMILES) | target | assay | system | conditions | scale | Emax |
| --- | --- | --- | --- | --- | --- | --- |
| O=C(Nc1ccc(Cl)cc1)C(NS(=O)(=O)c1cccs1)c1ccc(Cl)cc1 (stereo not drawn) | GPR17 long isoform | calcium mobilization, antagonist | 1321N1 stably expressing GPR17 | fitted at highest concentration | higher = stronger inhibition | 83.4 ± 3.74% |
| Cc1[nH]c2cc(Cl)cc(Cl)c2c1CCn1cc(CN2CCS(=O)(=O)CC2)nn1 | GLP1R | cAMP accumulation, positive allosteric modulator, HTRF | – | 0.6 µM, purified compound, added: GLP-1(9-36) at EC20 | baseline: BETP | 101 ± 3% |
| Cc1ccc(C(NS(=O)(=O)c2cccs2)C(=O)Nc2ccc(Cl)cc2)cc1 (stereo not drawn) | GPR17 long isoform | calcium mobilization, antagonist | 1321N1 stably expressing GPR17 | fitted at highest concentration | higher = stronger inhibition | 99.2 ± 3.09% |
| CC(C)(Cn1cc(CN[C@@H]2CCc3ccccc32)nn1)c1c[nH]c2ccccc12 | GLP1R | cAMP accumulation, positive allosteric modulator, HTRF | – | 0.6 µM, purified compound, added: GLP-1(9-36) at EC20 | baseline: BETP | 108% |
| COC(=O)c1cccc(C(=O)c2cn(C)c3ccccc23)n1 | AHR | reporter gene, agonist | – | – | baseline: ITE | 58 ± 3% |
| CC(C)(Cn1cc(-c2ccc(N)nc2)nn1)c1c[nH]c2ccccc12 | GLP1R | cAMP accumulation, positive allosteric modulator, HTRF | – | 0.6 µM, purified compound, added: GLP-1(9-36) at EC20 | baseline: BETP | 111 ± 6% |
| Cc1cccc2c1ncn2CC1CCN(S(=O)(=O)c2cccc(C(F)(F)F)c2)CC1 | KCNT1 | thallium flux, activator | HEK293 expressing KCNT1 | 30 µM | baseline: loxapine maximal response | 90% |
| COc1ccccc1-c1cc(C(F)(F)F)nc(S(C)(=O)=O)n1 | Vasopressin V2 receptor (AVPR2, Homo sapiens, UniProt P30518) | cAMP accumulation, positive allosteric modulator | CHO-K1 overexpressing target | added: vasopressin at EC20 | – | 16 ± 2.9% |
| O=C(c1cccc(N2CCOCC2)n1)c1c[nH]c2ccccc12 | AHR | reporter gene, agonist | – | – | baseline: ITE | 59 ± 1% |
| O=C(Nc1ccc(Cl)cc1)C(NS(=O)(=O)c1cccc(C(F)(F)F)c1)c1ccccc1 (stereo not drawn) | GPR17 long isoform | calcium mobilization, antagonist | 1321N1 stably expressing GPR17 | fitted at highest concentration | higher = stronger inhibition | 87.5 ± 12.7% |
| CCS(=O)(=O)c1nc(-c2ccc(F)cc2)cc(C(F)F)n1 | Secretin receptor (SCTR, Homo sapiens, UniProt P47872) | cAMP accumulation, positive allosteric modulator | CHO-K1 overexpressing target | added: secretin-family peptide mix at EC10-EC20 | – | no effect |
| O=C(Nc1ccc(Cl)cc1)C(NS(=O)(=O)c1cccs1)c1ccccc1Cl (stereo not drawn) | GPR17 long isoform | calcium mobilization, antagonist | 1321N1 stably expressing GPR17 | fitted at highest concentration | higher = stronger inhibition | 118 ± 1.54% |
| COc1ccccc1-c1cc(C(F)(F)F)nc(S(=O)(=O)CCCC(=O)O)n1 | GLP1R | cAMP accumulation, agonist | HEK293T overexpressing target | no peptide ligand | – | 26 ± 0.1% |
| Cc1[nH]c2cc(Cl)cc(Cl)c2c1CCn1cc(COCCOCCO)nn1 | GLP1R | cAMP accumulation, positive allosteric modulator, HTRF | – | 0.6 µM, crude reaction product, added: GLP-1(9-36) at EC20 | baseline: BETP | 105% |
| Cc1cccc2ncn(CC3CCN(S(=O)(=O)c4cccc(C(F)(F)F)c4)CC3)c12 | KCNT1 | thallium flux, activator | HEK293 expressing KCNT1 | 30 µM | baseline: loxapine maximal response | 30% |
| Cc1[nH]c2cc(Cl)cc(Cl)c2c1CCn1cc(CCCC#N)nn1 | GLP1R | cAMP accumulation, positive allosteric modulator, HTRF | – | 0.6 µM, crude reaction product, added: GLP-1(9-36) at EC20 | baseline: BETP | 96.4% |
| COC(=O)Cc1ccc(C(NS(=O)(=O)c2cccs2)C(=O)Nc2ccc(Cl)cc2)cc1 (stereo not drawn) | GPR17 long isoform | calcium mobilization, antagonist | 1321N1 stably expressing GPR17 | fitted at highest concentration | higher = stronger inhibition | 137 ± 4.38% |
| CCCC(O)c1cn(CCc2c(C)[nH]c3cc(Cl)cc(Cl)c23)nn1 (stereo not drawn) | GLP1R | cAMP accumulation, positive allosteric modulator, HTRF | – | 0.6 µM, crude reaction product, added: GLP-1(9-36) at EC20 | baseline: BETP | 92.5% |
| Cc1ccc2ncn(CC3CCN(S(=O)(=O)c4cccc(C(F)(F)F)c4)CC3)c2c1 | KCNT1 | thallium flux, activator | HEK293 expressing KCNT1 | 30 µM | baseline: loxapine maximal response | 67% |
| O=C(Nc1ccc(Br)c(F)c1)C(NS(=O)(=O)c1cccs1)c1ccccc1 (stereo not drawn) | GPR17 long isoform | calcium mobilization, antagonist | 1321N1 stably expressing GPR17 | fitted at highest concentration | higher = stronger inhibition | 75.8 ± 6.38% |
| O=S(=O)(c1cccc(C(F)(F)F)c1)N1CCC(Cn2cnc3ccc(C(F)(F)F)cc32)CC1 | KCNT1 | thallium flux, activator | HEK293 expressing KCNT1 | 30 µM | baseline: loxapine maximal response | 82% |
| O=C(Nc1ccc(Cl)cc1)C(NS(=O)(=O)c1ccccc1)c1ccccc1 (stereo not drawn) | GPR17 long isoform | calcium mobilization, antagonist | 1321N1 stably expressing GPR17 | fitted at highest concentration | higher = stronger inhibition | 104 ± 4.46% |
| CC(=O)NCc1cn(CCc2c(C)[nH]c3cc(Cl)cc(Cl)c23)nn1 | GLP1R | cAMP accumulation, positive allosteric modulator, HTRF | – | 0.6 µM, purified compound, added: GLP-1(9-36) at EC20 | baseline: BETP | 114 ± 3% |
| COC(=O)c1ccc(C(=O)c2c[nH]c3ccccc23)cn1 | AHR | reporter gene, agonist | – | – | baseline: ITE | 47 ± 1% |
| O=C(Nc1ccc(Cl)cc1)C(NS(=O)(=O)c1cccs1)c1cccc(F)c1 (stereo not drawn) | GPR17 long isoform | calcium mobilization, antagonist | 1321N1 stably expressing GPR17 | fitted at highest concentration | higher = stronger inhibition | 111 ± 1.84% |
| COc1ccc2c(c1)ncn2CC1CCN(S(=O)(=O)c2cccc(C(F)(F)F)c2)CC1 | KCNT1 | thallium flux, activator | HEK293 expressing KCNT1 | 30 µM | baseline: loxapine maximal response | 59% |
| COc1cnc(C(=O)c2c[nH]c3ccccc23)cn1 | AHR | reporter gene, agonist | – | – | baseline: ITE | 30 ± 2% |
| Cc1[nH]c2cc(Cl)cc(Cl)c2c1CCn1cc(CCCCO)nn1 | GLP1R | cAMP accumulation, positive allosteric modulator, HTRF | – | 0.6 µM, crude reaction product, added: GLP-1(9-36) at EC20 | baseline: BETP | 82.6% |
| O=C(OC1CCCCC1)c1cccc(C(=O)c2c[nH]c3ccccc23)n1 | AHR | reporter gene, agonist | – | – | baseline: ITE | 56 ± 1% |
| COc1cccc2c1ncn2CC1CCN(S(=O)(=O)c2cccc(C(F)(F)F)c2)CC1 | KCNT1 | thallium flux, activator | HEK293 expressing KCNT1 | 30 µM | baseline: loxapine maximal response | 62% |

Repeated from above:
| Structure (SMILES) | target | assay | system | conditions | scale | Emax |
| --- | --- | --- | --- | --- | --- | --- |
| Cc1ccc(C(NS(=O)(=O)c2cccs2)C(=O)Nc2ccc(Cl)cc2)cc1 (stereo not drawn) | GPR17 long isoform | calcium mobilization, antagonist | 1321N1 stably expressing GPR17 | fitted at highest concentration | higher = stronger inhibition | 99.2 ± 3.09% |
| CC(C)(Cn1cc(CN[C@@H]2CCc3ccccc32)nn1)c1c[nH]c2ccccc12 | GLP1R | cAMP accumulation, positive allosteric modulator, HTRF | – | 0.6 µM, purified compound, added: GLP-1(9-36) at EC20 | baseline: BETP | 108% |
| COC(=O)c1cccc(C(=O)c2cn(C)c3ccccc23)n1 | AHR | reporter gene, agonist | – | – | baseline: ITE | 58 ± 3% |
| CC(C)(Cn1cc(-c2ccc(N)nc2)nn1)c1c[nH]c2ccccc12 | GLP1R | cAMP accumulation, positive allosteric modulator, HTRF | – | 0.6 µM, purified compound, added: GLP-1(9-36) at EC20 | baseline: BETP | 111 ± 6% |
